Measurements collected from several papers.
Parts stem from different laboratories: compare values within a part only. Substitutions count along the parent as printed.

Block 1 — technique: DHFR PCA, deep sequencing; medium: yeast; with: (+)-ABA 17 µM; baseline: wild-type fitted maximum; reading: higher = stronger binding
Target: ABI1, truncated, D143A, DHFR fusion (Arabidopsis thaliana)
Notes: methotrexate growth selection, single substitutions
Starting sequence: PYL1, truncated, DHFR fusion (Arabidopsis thaliana); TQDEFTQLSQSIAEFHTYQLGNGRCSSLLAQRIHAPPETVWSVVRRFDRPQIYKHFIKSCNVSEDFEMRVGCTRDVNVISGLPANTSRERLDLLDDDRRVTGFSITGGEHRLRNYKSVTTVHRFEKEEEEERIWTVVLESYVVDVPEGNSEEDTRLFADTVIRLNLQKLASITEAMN; partner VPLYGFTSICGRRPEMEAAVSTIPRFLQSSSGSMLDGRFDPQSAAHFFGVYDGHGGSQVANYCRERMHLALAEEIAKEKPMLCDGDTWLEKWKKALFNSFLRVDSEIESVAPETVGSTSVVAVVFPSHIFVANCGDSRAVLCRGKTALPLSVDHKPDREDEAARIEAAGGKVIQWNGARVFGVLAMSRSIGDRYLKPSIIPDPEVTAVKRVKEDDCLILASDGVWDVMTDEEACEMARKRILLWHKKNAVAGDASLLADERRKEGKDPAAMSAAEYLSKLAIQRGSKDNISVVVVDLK
| Variant | relative binding score |
| --- | --- |
| K54P | -6.21% |
| R49A | 81.9% |
| R113D | 60.5% |
| F66I | 56.3% |
| V44T | 18.6% |
| I172F | 64.3% |
| S63K | 85.4% |
| T154Y | -12.2% |
| N77Y | 88.6% |
| E174S | 61.5% |

Block 2 — technique: protein binding microarray; form: double-stranded DNA, one strand shown; medium: in vitro; concentration: not given; baseline: not given; reading: higher = stronger binding
Target: Histone acetyltransferase KAT6A, winged helix 1, GST fusion (KAT6A, Homo sapiens, UniProt Q92794, residues 1-85)
Notes: 8-mer, flanks averaged, mean of 2 arrays, mostly near background
Residues (chain): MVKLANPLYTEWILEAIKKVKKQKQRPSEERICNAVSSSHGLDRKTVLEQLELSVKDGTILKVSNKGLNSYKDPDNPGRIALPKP
| Sequence | E-score |
| --- | --- |
| ACCACAAC | -0.138 |
| CGAAGGAC | 0.0968 |
| CTGAGGCA | -0.163 |
| GACTTTGC | 0.0373 |
| ACCCTTCG | -0.0582 |
| CAACAACA | -0.195 |
| ATTAGTAC | -0.0682 |

Block 3 — target: CCNF, cyclin fold, Cln2 fusion (human); technique: yeast growth competition, sequencing; medium: yeast; notes: strong parent motif; baseline: not given; reading: higher = stronger binding
Starting sequence: BRCA2 docking peptide (human); PSIKRNLLNEFDR
| Variant | normalised enrichment score |
| --- | --- |
| PSIKRNLLNEFYR [D12Y] | 3.2 |
| PSIKRTLLNEFDR [N6T] | 1.07 |
| LSIKRNLLNEFDR [P1L] | 4.26 |
| PSIKRNLLDEFDR [N9D] | 3.68 |
| PSIKRCLLNEFDR [N6C] | 4.92 |
| PSIKYNLLNEFDR [R5Y] | -0.0405 |
| PSIKRELLNEFDR [N6E] | 0.979 |
| PSIKRKLLNEFDR [N6K] | 2.11 |
| PSIKRNLLNEFSR [D12S] | 2.43 |
| YSIKRNLLNEFDR [P1Y] | 4.41 |
| PSIKRNRLNEFDR [L7R] | 0.888 |

Mixed results
| Molecule | target | test | test system | setting | scale | endpoint | result |
| --- | --- | --- | --- | --- | --- | --- | --- |
| PhoQ, residues 284 288 289 292 302 303 ASVMEA | PhoP, residues 12 14 15 18 19 TPWLV (Escherichia coli, UniProt P23836) | Sort-seq, item: YFP reporter | E. coli | PhoQ-PhoP variant library, with: 10 µM Mg2+ | baseline: high Mg2+ state, higher = stronger signaling | fold induction | 6.78 |

A few entries again (block 3):
| Variant | normalised enrichment score |
| --- | --- |
| PSIKRNRLNEFDR [L7R] | 0.888 |
| PSIKYNLLNEFDR [R5Y] | -0.0405 |
